Results pooled from the literature.
Every numbered part comes from another study and shows a few of its results, in no order.

Series 1 — read-out: enzyme activity; mode: inhibitor; tested at: 0.5 µM; reference: control
Target: Tyrosine-protein kinase Tec (TEC, Homo sapiens, UniProt P42680)
Chain of UniProt P42680 (whole entry, looked up): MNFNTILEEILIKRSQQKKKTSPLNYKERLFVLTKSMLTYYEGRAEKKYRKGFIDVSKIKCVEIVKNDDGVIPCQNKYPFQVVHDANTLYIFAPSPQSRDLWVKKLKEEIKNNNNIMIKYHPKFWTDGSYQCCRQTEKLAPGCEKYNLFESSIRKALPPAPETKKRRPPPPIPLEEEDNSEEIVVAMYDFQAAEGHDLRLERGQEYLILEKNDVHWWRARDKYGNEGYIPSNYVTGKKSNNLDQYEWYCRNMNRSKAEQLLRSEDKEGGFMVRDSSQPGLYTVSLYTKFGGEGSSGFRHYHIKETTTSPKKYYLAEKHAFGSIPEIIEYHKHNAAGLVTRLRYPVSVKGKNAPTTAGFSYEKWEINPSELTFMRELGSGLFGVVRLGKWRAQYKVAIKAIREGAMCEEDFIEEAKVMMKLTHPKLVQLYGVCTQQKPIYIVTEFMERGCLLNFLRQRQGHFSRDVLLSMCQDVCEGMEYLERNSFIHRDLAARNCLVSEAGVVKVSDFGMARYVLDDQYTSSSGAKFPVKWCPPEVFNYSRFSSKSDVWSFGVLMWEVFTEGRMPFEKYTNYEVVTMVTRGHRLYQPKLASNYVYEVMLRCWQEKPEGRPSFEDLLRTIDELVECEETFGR
For Nc1ccc2ncnc(NCCc3ccc(Oc4ccccc4)cc3)c2c1, the remaining activity was 88.3%.
O=C(O)c1ccc2c3c1cccc3c(=O)n1c3ccccc3nc21 has a remaining activity of 123%.
Nc1[nH]nc2nc3ccccc3nc12 has a remaining activity of 108%.
O=C(Nc1cccc(Nc2cc(Nc3cccc(C(F)(F)F)c3)ncn2)c1)C1CC1 gave a remaining activity of 115%.
CC(C)[C@H](CO)Nc1nc(Nc2cc(N)cc(Cl)c2)c2ncn(C(C)C)c2n1 has a remaining activity of 130%.
Cc1ccc(Nc2nccc(N(C)c3ccc4c(C)n(C)nc4c3)n2)cc1S(N)(=O)=O gave a remaining activity of 101%.
For Cn1sc(=O)n(Cc2ccccc2)c1=O, the remaining activity was 117%.
The remaining activity of COc1ccc(OC)c2c(=S)c3ccccc3[nH]c12 is reported as 147%.
With Nc1ncnc2n[nH]c(Nc3ccc(F)cc3)c12 the remaining activity was 86%.
Cn1c2ccccc2c2c3c(c4c5ccccc5n(CCC#N)c4c21)CNC3=O gave a remaining activity of 96.4%.
For OCC(O)CCON=C1C(c2c(O)[nH]c3ccccc23)=Nc2ccccc21 (stereo not drawn), the remaining activity was 101%.
The remaining activity of NCCNc1ncc(C(N)=O)c(Nc2cccc(C(F)(F)F)c2)n1 is reported as 125%.
With N#CC(C#N)=C(N)/C(C#N)=C/c1ccc(O)cc1 the remaining activity was 94.7%.
COc1ccc(CNC(=O)Nc2ncc([N+](=O)[O-])s2)cc1 gave a remaining activity of 97.7%.
CCOC(=O)c1c(C)[nH]c(/C=C2\C(=O)Nc3ccccc32)c1C has a remaining activity of 141%.

Series 2 — read-out: binding; technique: radioligand binding; tested at: 10 µM
Target: Histamine H2 receptor (HRH2, Homo sapiens, UniProt P25021)
Chain of UniProt P25021 (whole entry, looked up): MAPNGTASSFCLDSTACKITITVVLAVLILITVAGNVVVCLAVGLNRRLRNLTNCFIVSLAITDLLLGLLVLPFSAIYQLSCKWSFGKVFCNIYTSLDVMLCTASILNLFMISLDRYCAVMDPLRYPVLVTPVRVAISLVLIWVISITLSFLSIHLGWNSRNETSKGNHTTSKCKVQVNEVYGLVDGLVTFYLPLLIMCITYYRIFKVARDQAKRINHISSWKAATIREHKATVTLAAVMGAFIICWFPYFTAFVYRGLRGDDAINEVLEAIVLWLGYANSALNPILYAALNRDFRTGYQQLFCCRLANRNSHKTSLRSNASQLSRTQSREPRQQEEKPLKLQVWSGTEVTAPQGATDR
The inhibition of O=C(NC[C@@H]1[C@H]2CN(C(=O)OCc3cc(C(F)(F)F)cc(C(F)(F)F)c3)C[C@@H]12)c1ccc2[nH]nnc2c1 is reported as 28.1%.
CN([C@@H]1CCc2c(CC(=O)O)c3cc(S(C)(=O)=O)ccc3n2C1)S(=O)(=O)c1ccc(F)cc1 has an inhibition of -10.7%.
Cc1c(N2CCCC2)nc2ccc(Br)cc2c1C(=O)NC[C@H](CCC(=O)O)c1ccccc1Cl gave an inhibition of 23.3%.
For CC(C)CC(=O)N1CCc2nc(-c3ccc(Br)cc3)nc(N(C)Cc3ccccc3)c2C1, the inhibition was 3.39%.
For O=C(Nc1cccnn1)N1CCC(=Cc2cccc(Oc3ccc(C(F)(F)F)cn3)c2)CC1, the inhibition was 17.3%.
CC(=O)N1CCC(c2ccc(C(=O)NC(=N)N)cc2C(F)(F)F)CC1 gave an inhibition of -11.2%.

Series 3 — read-out: probe labelling
SMILES: COc1cc(C(=O)N2CCC(N3CCN(C)CC3)CC2)ccc1Nc1ncc2c(n1)N(C)c1ccccc1C(=O)N2C
It gave 5.3% for inhibition (AMPKa1 and AMPKa2 (mouse); KiNativ, item: VAVkILNR peptide, Lys1 site; brain tissue lysate (mouse); 1 µM, added: ATP acyl-phosphate probe).
The inhibition was 2.5% (AKT1 (mouse); KiNativ, item: GTFGkVILVK peptide, ATP loop; brain tissue lysate (mouse); 0.1 µM, added: ATP acyl-phosphate probe).
For CaMK1b (mouse); KiNativ, item: Lys1 site peptide; brain tissue lysate (mouse); 0.1 µM, added: ADP acyl-phosphate probe: inhibition read -9.3%.
For p38alpha (mouse); inhibitor, KiNativ ActivX ATP probe; mouse brain lysate; 1 µM, peptide QELNkTIWEVPER: inhibition read -15.2%.
It gave -14.2% for inhibition (IGF1R (human); KiNativ ADP probe; human PBMC lysate; concentration not given, LYS1 labelled site).
mouse PCTAIRE2 and PCTAIRE3; KiNativ ATP probe; mouse brain lysate; 1 µM, LYS1 site — inhibition: 0.5%.
The inhibition was -12.4% (NEK1 (mouse); KiNativ, item: DIkSQNIFLTK peptide, LYS2 site; brain tissue lysate (mouse); 0.1 µM, added: ATP acyl-phosphate probe).

Series 4 — organism: Plasmodium berghei; mode: inhibitor; cells: Huh-7; strain: GFP-expressing, liver stage; tested at: 10 µM; time: 24 h; reference: untreated control
The infection rate of O=C1OC(c2ccc(O)cc2)(c2ccc(O)cc2)c2ccccc21 is reported as 87.2%.
O=C(O)c1cn(-c2ccc(F)cc2)c2cc(N3CCNCC3)c(F)cc2c1=O has an infection rate of 103%.
The infection rate of COC(=O)Nc1nc2cc([S+]([O-])c3ccccc3)ccc2[nH]1 (stereo not drawn) is reported as 104%.
Cc1ncc([N+](=O)[O-])n1CC(O)CCl (stereo not drawn) gave an infection rate of 106%.
For CC[C@]1(O)C[C@@H]2CN(CCc3c([nH]c4ccccc34)[C@@](C(=O)OC)(c3cc4c(cc3OC)N(C)[C@H]3[C@@](O)(C(=O)OC)[C@H](OC(C)=O)[C@]5(CC)C=CCN6CC[C@]43[C@@H]65)C2)C1, the infection rate was 53.2%.
CCCc1cc(=O)[nH]c(=S)[nH]1 gave an infection rate of 102%.
CS(=O)(=O)c1ccc([C@@H](O)[C@@H](CO)NC(=O)C(Cl)Cl)cc1 has an infection rate of 90%.
O=C1C(O)=C(O)C(=O)C(O)=C1O has an infection rate of 92%.
